Measured values of several laboratories.
Protocols differ between the studies behind these lines. ± marks the error that the study gave.

SMILES | test | system | conditions | how to read | quantity | value
Clc1ccc(-c2ccccc2)cc1 | – | rat Sprague-Dawley female, serum | inhalation, 35 µg/rat, 24 h | – | serum Glucose | 264 ± 12 mg/dL
CN1CC[C@@H](c2c(O)cc(O)c3c(=O)cc(-c4ccc(C(F)(F)F)cc4Cl)oc23)[C@@H]1CO | measured: Anemia | relapsed B-cell malignancies or AML | oral, 100 mg, grade 3-4, continuous dosing | – | patients with adverse event | 0%
CC(C)C[C@@H](NC(=O)[C@H](Cc1ccccc1)NC(=O)CNC(=O)[C@@H](C)NC(=O)[C@H](Cc1ccc(O)cc1)NC(=O)[C@@H]1CCCN1C(=O)[C@@H]1CCCN1C(=O)c1ccc[n+](C)c1)C(=O)O | – | rat hypothalamus homogenate | 100 µM, pH 7.4, 37 °C | – | half-life | 0.467 h
COc1cc(N2CCC(N3CCN(C)CC3)CC2)ccc1Nc1ncnc(Nc2ccccc2S(=O)(=O)C(C)C)n1 | measured: Stomatitis | Japanese patients with solid tumours | oral, dose not given, all grades | – | treatment-emergent adverse events | 3 number (percent)
CCN1CCN(Cc2ccc(Nc3ncc(F)c(-c4cc(F)c5nc6n(c5c4)[C@H](C)CCC6)n3)nc2)CC1 | – | advanced solid tumour patients | dose not given, Phase Ia monotherapy | – | Dizziness incidence, grade ≥3 | 0%
Cc1cccc(Cn2nc(C3CC3)c3c(NC(=O)c4cnc5cc(OCCN6CCN(C)CC6)ccn45)cccc32)n1 | CTCAE v4.03, measured: all adverse events | pancreatic ductal adenocarcinoma patients | oral, dose not given, together with: pembrolizumab IV every 3 weeks | – | all-cause adverse events | 100%
[O-][S+]1CCc2nc(N3CCC(c4ncc(Cl)cn4)CC3)nc(NC3(CO)CCC3)c21 (centres unmarked) | measured: gastrointestinal disorders | healthy male humans | 12 mg twice daily | – | adverse event incidence | 12.5%
CCc1ccc(CC/C=C/c2ccc3c(c2)C(=O)CC3)cc1 | – | Sprague-Dawley rat, male, serum | oral, 30 mg/kg/day, 14 days | – | total bilirubin | 1.43 µM
O[C@H]1CCCN[C@@H]1CCCn1cnc2c(Cl)c(Cl)ccc21 | – | healthy CYP2D6 intermediate metabolizers, plasma | oral, 150 mg | – | Cmax geometric LS mean | 328 ng/mL
CC1(C)[C@H](C(=O)O[C@H](C#N)c2cccc(Oc3ccccc3)c2)[C@@H]1C=C(Br)Br | measured: CYP2B6 | human, age 5 years, recombinant human CYP2B6 | 0.1 µM | – | enzyme contribution to clearance | 0.44%
O=C1Nc2cc3[nH]nc(-c4ccncc4)c3cc2CN1Cc1ccccc1 | CTCAE v4.03 | advanced solid tumour patients | intravenous, 1.8 mg/kg, schedules 1/2 | – | patients with abdominal pain | 0%
O=C(Nc1ccccc1)C1CCN(C(=O)Oc2cccnc2)CC1 | adverse event reporting | healthy women | oral, 100 mg, 9 days | – | subjects with eye disorders | 15.4%
CCC[C@@](N)(CO)CCc1ccc(OCCCCCC(C)C)cc1 | – | male hound dog, plasma | oral, 2.5 mg/kg, capsule, geometric mean | – | AUC(0-inf) | 1.86 µM·h
C[C@@H]1OC(=O)NN=C1c1ccc(-c2ccc(F)cc2)c(C(F)(F)F)c1 | phase I trial, measured: Fatigue all grades | human patients | 5 mg once daily | – | patients with adverse event | 0%
COc1ccc2c(c1)CN(C(=O)CCN1CCC(Cc3ccccc3)CC1)CC[S@@+]2[O-] | – | female beagle dogs, chronic AV block | intravenous, 3 mg/kg, 1 h | – | QTcF | 309 ± 12 ms
Fc1ccc([C@@H]2CCNC[C@H]2COc2ccc3c(c2)OCO3)cc1 | measured: Tiredness | healthy volunteers | oral, dose not given, given -1 h relative to LSD, together with: LSD | direction not given | List of Complaints score | 8 score
COc1ccnc(C(=O)N[C@H]2COC(=O)[C@H](Cc3ccccc3)[C@@H](OC(=O)C(C)C)[C@H](C)OC2=O)c1OCOC(=O)C(C)C | – | mouse, liver | – | – | unscheduled DNA synthesis | negative
O=S(=O)(Nc1ccccc1)c1ccc(NC(=S)Nc2ccccc2)cc1 | – | female mice, thymus | oral, 80 mg/kg daily 14 days | relative to: body weight | relative organ weight | 0.35%
CC(=O)c1c(C)c2cnc(Nc3ccc(C4CCN(CCS(C)(=O)=O)CC4)cn3)nc2n(C2CCCC2)c1=O | – | human, plasma | oral, 150 mg, day 1 single dose | – | Vd | 1160 L

SMILES | test | system | conditions | how to read | quantity | value
CO[C@H]1C[C@@H]2CC[C@@H](C)[C@@](O)(O2)C(=O)C(=O)N2CCCC[C@H]2C(=O)O[C@H]([C@H](C)C[C@@H]2CC[C@@H](OC(=O)NCCOCCOCCOCCOCCOCCOCCOCCOCCC(=O)N3CCc4cc(Cn5nc(-c6ccc7oc(N)nc7c6)c6c(N)ncnc65)ccc4C3)[C@H](OC)C2)C[C@@H](O)[C@H](C)/C=C(\C)[C@@H](O)[C@@H](OC)C(=O)[C@H](C)C[C@H](C)/C=C/C=C/C=C/1C | phase 1 dose escalation, measured: rash | advanced solid tumour patients | intravenous, 12 mg weekly, grade ≥3 | – | TRAE incidence | 0%
CN[C@@H](C)C(=O)N[C@H]1CN(S(=O)(=O)c2cccc(S(=O)(=O)N3CC[C@H]4CC[C@@H](C(=O)NC(c5ccccc5)c5ccccc5)N4C(=O)[C@@H](NC(=O)[C@H](C)NC)C3)c2)CC[C@H]2CC[C@@H](C(=O)NC(c3ccccc3)c3ccccc3)N2C1=O | – | patients with advanced solid tumours | 20 mg, phase I monotherapy | – | treatment-related AST elevation incidence | 0%
COc1cc2c(cc1OC)CN(CCc1ccc(NC(=O)c3cccc4c(=O)c5cccc(OC)c5[nH]c34)cc1)CC2 | – | CD-1 mouse, male, plasma | intraperitoneal, 1 mg/kg | – | half-life | 13.2 h
CC(C)[C@@H]1NC(=O)CNC(=O)[C@H](CC(N)=O)NC(=O)[C@H](CCCNC(=N)N)NC(=O)[C@H](Cc2ccc(O)cc2)NC(=O)[C@H](C(C)C)NC(=O)[C@@H](NC(=O)[C@@H](NC(=O)[C@H](CC(N)=O)NC(=O)[C@H](Cc2c[nH]c3ccccc23)NC(=O)[C@H](C)NC(=O)[C@H](Cc2ccccc2)NC(=O)CN)C(C)C)CSSC[C@@H](C(=O)N[C@@H](Cc2cnc[nH]2)C(=O)N[C@@H](CCCNC(=N)N)C(=O)N[C@@H](CCCNC(=N)N)C(=O)N[C@@H](C)C(=O)N[C@@H](CC(N)=O)C(N)=O)NC(=O)[C@H](C(C)C)NC(=O)[C@H](CCCNC(=N)N)NC1=O | – | ICR mouse, blood | intramammary, 10 mg/kg, day 5, 3 d dosing | – | AST | 26.2 ± 1.07 IU/L
COc1cc2c(Oc3ccc4[nH]c(C)cc4c3F)ccnc2cc1OCC1(N)CC1 | – | paediatric recurrent refractory sarcoma | 8 mg/kg | – | grade 1 or 2 ALT elevation | 13.3%
C=CC(=O)Nc1cc(Nc2nccc(Nc3cc(Cl)c(F)cc3C(C)(C)O)n2)c(OC)cc1N1CC[C@@H](N(C)C)C1 | treatment-emergent adverse events | human | oral, 200 mg, phase I clinical trial | – | incidence of weight decreased | 0%
COc1ccc([C@@H]2CC(=O)c3c(O)cc(O)cc3O2)cc1O | – | male Sprague-Dawley rat, obese | oral, 100 mg/kg of neohesperidin, 24 to 36 h, after β-glucuronidase/sulfatase hydrolysis | – | urinary excreted amount, total | 2250 ± 1160 ng
N#C/N=C1\SCCN1Cc1ccc(Cl)nc1 | – | soil | 56 days, nominal 10 | – | concentration | 0.05 mg/kg dry soil
C[C@@H](NC(=O)N1C(=O)[C@H](Cc2ccnc(N)c2)[C@H]1C(=O)O)C1CCCCC1 | – | healthy adult Chinese volunteers | continuous intravenous infusion, 1.5 mg/kg/h, 5-day infusion, CTCAE 5.0 grading | – | incidence of elevated creatine phosphokinase | 0%
CC(C)[C@H](N)C(=O)NCCCS(=O)(=O)O | – | human | oral, 265 mg twice daily, 6 h post-dose, steady state, week 65 | – | plasma concentration | 152 ng/mL
Clc1ccc(C(c2ccccc2Cl)C(Cl)Cl)cc1 (centres unmarked) | – | human, plasma | concentration not given, 10 days | – | trough plasma concentration | 4000 ng/mL
CC(C)(c1ccccc1)c1cc(-n2nc3ccccc3n2)c(O)c(C(C)(C)c2ccccc2)c1 | exposure assessment | human, age 3-6 years | spray sunscreen | – | mean daily dermal uptake | 11.8 ng/kg body weight/day
NCCCC[C@@H]1NC(=O)[C@@H](Cc2c[nH]c3ccccc23)NC(=O)[C@H](c2ccccc2)NC(=O)[C@@H]2C[C@@H](OC(=O)NCCN)CN2C(=O)[C@H](Cc2ccccc2)NC(=O)[C@H](Cc2ccc(OCc3ccccc3)cc2)NC1=O | – | healthy human volunteers | 600 µg twice daily | – | subjects with dry mouth | 0%
C=CC(=O)N1CC[C@H](n2nc(C#Cc3cc(OC)cc(OC)c3)c3c(N)ncnc32)C1 | – | human patients, all | oral, dose not given, QD regimen, adverse drug reaction | – | decreased appetite, any grade | 44.2%
CC(C)(O)c1cc(Nc2cc(Oc3cn(C4CC4)nc3C3CCOCC3)ccn2)ccn1 | measured: Headache | Japanese patients with advanced cancer | oral, dose not given, any grade | – | treatment-emergent adverse events | 0%
C[C@]1(CO)Cc2ncn(-c3ccc(C#N)c(Cl)c3)c2C(=O)O1 | – | Japanese subjects | dose not given, all doses total | – | drug-related Acne incidence | 0%
C1=Cc2nc1cc1ccc([n-]1)c(C1CC1)c1nc(cc3ccc([n-]3)c2C2CC2)C=C1.CC(=O)[O-].[Mn+3] | LC-MS/MS | Sprague-Dawley rat, plasma | oral gavage, dose not given, 60 min, individual rat Rat2 | – | plasma concentration | 160 ng/mL
CC(C)CC(=O)OC[C@H]1O[C@@](C#N)(c2ccc3c(N)ncnn23)[C@H](O)[C@@H]1O | – | mouse whole blood | 5 µM, 15 min | – | remaining compound | 0%
CCCSc1ccc2nc(NC(=O)OC)[nH]c2c1 | – | mouse, blood | oral, 50 mg/kg, tolerability, mean | – | creatinine | 25.4 µmol/L

Some of these lines once more:
SMILES | test | system | conditions | how to read | quantity | value
COc1cc(N2CCC(N3CCN(C)CC3)CC2)ccc1Nc1ncnc(Nc2ccccc2S(=O)(=O)C(C)C)n1 | measured: Stomatitis | Japanese patients with solid tumours | oral, dose not given, all grades | – | treatment-emergent adverse events | 3 number (percent)
C[C@@H](NC(=O)N1C(=O)[C@H](Cc2ccnc(N)c2)[C@H]1C(=O)O)C1CCCCC1 | – | healthy adult Chinese volunteers | continuous intravenous infusion, 1.5 mg/kg/h, 5-day infusion, CTCAE 5.0 grading | – | incidence of elevated creatine phosphokinase | 0%
C[C@]1(CO)Cc2ncn(-c3ccc(C#N)c(Cl)c3)c2C(=O)O1 | – | Japanese subjects | dose not given, all doses total | – | drug-related Acne incidence | 0%
COc1ccc([C@@H]2CC(=O)c3c(O)cc(O)cc3O2)cc1O | – | male Sprague-Dawley rat, obese | oral, 100 mg/kg of neohesperidin, 24 to 36 h, after β-glucuronidase/sulfatase hydrolysis | – | urinary excreted amount, total | 2250 ± 1160 ng
C1=Cc2nc1cc1ccc([n-]1)c(C1CC1)c1nc(cc3ccc([n-]3)c2C2CC2)C=C1.CC(=O)[O-].[Mn+3] | LC-MS/MS | Sprague-Dawley rat, plasma | oral gavage, dose not given, 60 min, individual rat Rat2 | – | plasma concentration | 160 ng/mL
CC(C)C[C@@H](NC(=O)[C@H](Cc1ccccc1)NC(=O)CNC(=O)[C@@H](C)NC(=O)[C@H](Cc1ccc(O)cc1)NC(=O)[C@@H]1CCCN1C(=O)[C@@H]1CCCN1C(=O)c1ccc[n+](C)c1)C(=O)O | – | rat hypothalamus homogenate | 100 µM, pH 7.4, 37 °C | – | half-life | 0.467 h
